Measurements of several laboratories.
Numbered parts are unrelated; each lists some results of a single study.
Chain of UniProt P15056 (whole entry, looked up): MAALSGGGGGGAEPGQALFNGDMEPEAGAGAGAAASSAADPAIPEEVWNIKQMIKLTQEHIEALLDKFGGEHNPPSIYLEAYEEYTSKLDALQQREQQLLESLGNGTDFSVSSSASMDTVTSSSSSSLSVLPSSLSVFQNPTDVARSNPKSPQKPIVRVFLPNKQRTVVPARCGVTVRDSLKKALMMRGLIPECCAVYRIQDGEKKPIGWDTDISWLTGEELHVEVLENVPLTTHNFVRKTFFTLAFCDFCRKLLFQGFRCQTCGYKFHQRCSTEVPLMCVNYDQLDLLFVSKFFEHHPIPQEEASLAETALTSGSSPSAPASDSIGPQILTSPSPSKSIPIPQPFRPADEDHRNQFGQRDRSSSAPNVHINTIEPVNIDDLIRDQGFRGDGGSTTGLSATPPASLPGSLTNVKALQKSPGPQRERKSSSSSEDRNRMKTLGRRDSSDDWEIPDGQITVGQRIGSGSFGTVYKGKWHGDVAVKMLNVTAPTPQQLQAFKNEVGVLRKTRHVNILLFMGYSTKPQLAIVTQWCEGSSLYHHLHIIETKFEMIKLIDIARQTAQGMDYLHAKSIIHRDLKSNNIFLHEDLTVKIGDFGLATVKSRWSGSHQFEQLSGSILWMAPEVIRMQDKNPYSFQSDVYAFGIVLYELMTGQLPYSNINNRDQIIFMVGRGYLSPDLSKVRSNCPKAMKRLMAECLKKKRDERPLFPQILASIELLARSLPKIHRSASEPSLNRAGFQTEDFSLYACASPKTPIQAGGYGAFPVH
Chain of UniProt Q16659 (whole entry, looked up): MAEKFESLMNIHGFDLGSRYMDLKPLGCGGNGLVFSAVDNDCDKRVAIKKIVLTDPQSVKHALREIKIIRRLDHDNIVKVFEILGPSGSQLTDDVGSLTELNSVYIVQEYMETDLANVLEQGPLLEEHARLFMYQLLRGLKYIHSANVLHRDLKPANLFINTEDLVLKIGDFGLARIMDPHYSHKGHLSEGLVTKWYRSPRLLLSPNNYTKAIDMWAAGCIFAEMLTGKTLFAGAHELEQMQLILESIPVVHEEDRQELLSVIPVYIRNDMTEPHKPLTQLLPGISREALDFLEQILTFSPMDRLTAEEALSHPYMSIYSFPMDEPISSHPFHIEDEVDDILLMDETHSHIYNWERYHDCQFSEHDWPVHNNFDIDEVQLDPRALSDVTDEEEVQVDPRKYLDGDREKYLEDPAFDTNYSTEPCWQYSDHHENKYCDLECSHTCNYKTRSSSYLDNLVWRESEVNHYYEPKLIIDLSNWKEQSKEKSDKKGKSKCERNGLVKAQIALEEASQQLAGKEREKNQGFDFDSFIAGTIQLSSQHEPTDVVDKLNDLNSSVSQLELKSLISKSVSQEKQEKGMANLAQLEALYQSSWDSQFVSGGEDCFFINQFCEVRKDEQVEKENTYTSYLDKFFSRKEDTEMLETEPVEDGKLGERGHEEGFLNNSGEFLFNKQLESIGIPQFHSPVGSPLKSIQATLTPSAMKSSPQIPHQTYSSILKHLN
Chain of UniProt Q9UIK4 (whole entry, looked up): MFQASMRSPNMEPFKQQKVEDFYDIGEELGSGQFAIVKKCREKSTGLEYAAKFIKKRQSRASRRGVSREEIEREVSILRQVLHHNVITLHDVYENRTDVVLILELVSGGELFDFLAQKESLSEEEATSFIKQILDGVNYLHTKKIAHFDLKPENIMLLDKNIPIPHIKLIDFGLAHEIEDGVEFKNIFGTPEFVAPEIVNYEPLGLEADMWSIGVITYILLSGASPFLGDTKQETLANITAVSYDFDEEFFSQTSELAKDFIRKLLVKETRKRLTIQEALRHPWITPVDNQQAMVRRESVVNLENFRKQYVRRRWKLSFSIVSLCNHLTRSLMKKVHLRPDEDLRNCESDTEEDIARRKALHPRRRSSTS
Chain of UniProt Q9UM73 (whole entry, looked up): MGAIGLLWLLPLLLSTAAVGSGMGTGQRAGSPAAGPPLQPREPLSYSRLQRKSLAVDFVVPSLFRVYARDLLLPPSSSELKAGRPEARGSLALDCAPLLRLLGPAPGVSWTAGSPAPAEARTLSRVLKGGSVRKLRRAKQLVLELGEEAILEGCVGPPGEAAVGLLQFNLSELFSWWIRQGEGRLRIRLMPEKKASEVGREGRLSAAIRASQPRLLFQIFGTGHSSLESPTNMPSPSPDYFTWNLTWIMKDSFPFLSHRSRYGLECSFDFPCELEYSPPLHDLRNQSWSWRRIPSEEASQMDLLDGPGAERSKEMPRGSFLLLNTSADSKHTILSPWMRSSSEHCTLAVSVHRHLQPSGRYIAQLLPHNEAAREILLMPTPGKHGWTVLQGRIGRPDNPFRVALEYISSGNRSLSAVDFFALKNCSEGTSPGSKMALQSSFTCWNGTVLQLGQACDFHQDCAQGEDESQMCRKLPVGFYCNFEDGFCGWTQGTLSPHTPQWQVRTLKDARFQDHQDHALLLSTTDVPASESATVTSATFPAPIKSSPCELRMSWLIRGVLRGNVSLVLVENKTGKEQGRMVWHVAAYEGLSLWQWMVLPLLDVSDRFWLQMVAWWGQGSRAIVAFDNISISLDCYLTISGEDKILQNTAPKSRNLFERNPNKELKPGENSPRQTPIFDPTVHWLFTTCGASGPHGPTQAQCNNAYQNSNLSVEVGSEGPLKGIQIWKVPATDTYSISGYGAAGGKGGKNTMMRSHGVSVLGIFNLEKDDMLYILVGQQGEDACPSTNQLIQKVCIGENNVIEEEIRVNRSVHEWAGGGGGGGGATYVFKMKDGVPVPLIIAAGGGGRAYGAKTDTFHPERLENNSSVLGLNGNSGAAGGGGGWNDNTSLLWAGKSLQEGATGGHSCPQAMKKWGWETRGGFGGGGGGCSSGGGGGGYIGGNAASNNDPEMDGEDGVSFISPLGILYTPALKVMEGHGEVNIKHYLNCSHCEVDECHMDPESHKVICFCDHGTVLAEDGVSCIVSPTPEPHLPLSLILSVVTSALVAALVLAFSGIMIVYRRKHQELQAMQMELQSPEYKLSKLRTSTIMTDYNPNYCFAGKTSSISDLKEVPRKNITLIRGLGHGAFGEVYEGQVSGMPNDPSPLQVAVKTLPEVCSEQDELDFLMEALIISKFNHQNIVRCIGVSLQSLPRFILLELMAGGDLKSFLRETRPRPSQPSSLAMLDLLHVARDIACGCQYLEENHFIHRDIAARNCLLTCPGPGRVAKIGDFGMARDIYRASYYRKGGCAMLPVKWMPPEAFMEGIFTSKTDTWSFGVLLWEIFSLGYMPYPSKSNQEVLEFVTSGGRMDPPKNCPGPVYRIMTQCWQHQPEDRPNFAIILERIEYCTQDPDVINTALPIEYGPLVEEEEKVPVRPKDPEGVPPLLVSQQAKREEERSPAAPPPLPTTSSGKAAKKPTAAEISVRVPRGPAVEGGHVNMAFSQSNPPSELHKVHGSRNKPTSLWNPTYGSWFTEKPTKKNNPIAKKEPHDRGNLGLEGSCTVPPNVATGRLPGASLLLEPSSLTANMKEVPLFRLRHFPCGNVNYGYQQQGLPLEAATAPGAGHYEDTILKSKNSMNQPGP
Chain of UniProt P08069 (whole entry, looked up): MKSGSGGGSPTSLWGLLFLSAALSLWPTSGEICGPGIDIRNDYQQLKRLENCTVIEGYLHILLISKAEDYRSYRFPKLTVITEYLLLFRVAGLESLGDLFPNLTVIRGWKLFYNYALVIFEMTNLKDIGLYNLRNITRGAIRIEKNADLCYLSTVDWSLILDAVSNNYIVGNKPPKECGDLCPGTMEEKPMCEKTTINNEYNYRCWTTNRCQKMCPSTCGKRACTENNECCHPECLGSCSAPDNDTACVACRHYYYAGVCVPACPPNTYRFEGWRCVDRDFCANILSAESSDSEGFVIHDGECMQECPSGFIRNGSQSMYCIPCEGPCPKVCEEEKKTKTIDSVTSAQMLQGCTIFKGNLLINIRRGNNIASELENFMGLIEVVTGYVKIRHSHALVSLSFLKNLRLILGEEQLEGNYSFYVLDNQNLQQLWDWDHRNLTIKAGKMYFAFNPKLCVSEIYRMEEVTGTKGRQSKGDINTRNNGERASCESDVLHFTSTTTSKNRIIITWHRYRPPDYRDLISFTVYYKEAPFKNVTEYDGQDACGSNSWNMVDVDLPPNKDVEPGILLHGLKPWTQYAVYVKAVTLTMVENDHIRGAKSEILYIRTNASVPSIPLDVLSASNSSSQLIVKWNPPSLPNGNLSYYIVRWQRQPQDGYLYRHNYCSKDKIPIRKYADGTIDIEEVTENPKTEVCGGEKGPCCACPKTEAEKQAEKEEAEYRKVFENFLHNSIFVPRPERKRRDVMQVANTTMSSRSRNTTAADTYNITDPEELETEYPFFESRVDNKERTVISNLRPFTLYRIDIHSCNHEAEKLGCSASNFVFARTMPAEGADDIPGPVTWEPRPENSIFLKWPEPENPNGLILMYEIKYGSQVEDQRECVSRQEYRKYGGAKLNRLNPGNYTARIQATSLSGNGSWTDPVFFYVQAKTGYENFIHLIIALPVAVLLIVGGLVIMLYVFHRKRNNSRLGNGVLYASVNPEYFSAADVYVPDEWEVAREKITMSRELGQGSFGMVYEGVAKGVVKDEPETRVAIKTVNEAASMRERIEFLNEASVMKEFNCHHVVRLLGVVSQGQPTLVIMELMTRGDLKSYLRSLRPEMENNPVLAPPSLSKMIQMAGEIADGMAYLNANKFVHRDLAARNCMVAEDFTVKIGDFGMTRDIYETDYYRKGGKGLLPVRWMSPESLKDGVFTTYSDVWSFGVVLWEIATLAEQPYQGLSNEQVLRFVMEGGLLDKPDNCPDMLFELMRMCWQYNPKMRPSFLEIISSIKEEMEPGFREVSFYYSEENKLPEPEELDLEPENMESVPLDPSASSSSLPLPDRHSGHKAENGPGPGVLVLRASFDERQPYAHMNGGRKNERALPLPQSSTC

Series 1 — read-out: cell-free assay; technique: competition with immobilised ligand; concentration: 1 µM
SMILES: O=C(NS(=O)(=O)c1ccc(NCC2CCOCC2)c([N+](=O)[O-])c1)c1ccc(N2CCN(Cc3ccc(C(F)(F)F)cc3-c3ccc(Cl)cc3)CC2)cc1Oc1cnc2[nH]ccc2c1
For ALK tyrosine kinase receptor (ALK, Homo sapiens, UniProt Q9UM73): remaining binding read 94%.
The remaining binding was 98% (Mitogen-activated protein kinase kinase kinase kinase 1 (MAP4K1, Homo sapiens, UniProt Q92918)).
The remaining binding was 100% (Serine/threonine-protein kinase B-raf (BRAF, Homo sapiens, UniProt P15056)).
It gave 100% for remaining binding (Receptor-type tyrosine-protein kinase FLT3 (FLT3, Homo sapiens, UniProt P36888, N841I)).
It gave 100% for remaining binding (Serine/threonine-protein kinase 17B (STK17B, Homo sapiens, UniProt O94768)).
Calcium/calmodulin-dependent protein kinase type 1B (PNCK, Homo sapiens, UniProt Q6P2M8) — remaining binding: 0%.
It gave 100% for remaining binding (Tyrosine-protein kinase JAK1, JH2 (JAK1, Homo sapiens, UniProt P23458)).
It gave 100% for remaining binding (Receptor-interacting serine/threonine-protein kinase 2 (RIPK2, Homo sapiens, UniProt O43353)).
It gave 85% for remaining binding (Death-associated protein kinase 2 (DAPK2, Homo sapiens, UniProt Q9UIK4)).
Serine/threonine-protein kinase PAK 5 (PAK5, Homo sapiens, UniProt Q9P286) — remaining binding: 95%.
Insulin-like growth factor 1 receptor (IGF1R, Homo sapiens, UniProt P08069) — remaining binding: 100%.
It gave 100% for remaining binding (Casein kinase I isoform gamma-2 (CSNK1G2, Homo sapiens, UniProt P78368)).
The remaining binding was 100% (Macrophage colony-stimulating factor 1 receptor (CSF1R, Homo sapiens, UniProt P07333)).
The remaining binding was 100% (Mitotic checkpoint serine/threonine-protein kinase BUB1 (BUB1, Homo sapiens, UniProt O43683)).
The remaining binding was 100% (Mitogen-activated protein kinase 6 (MAPK6, Homo sapiens, UniProt Q16659)).
The remaining binding was 100% (Cyclin-dependent kinase 4 (CDK4, Homo sapiens, UniProt P11802)).

Series 2 — cell line: mouse MPNST tumor cells; technique: high-content nuclear imaging; measured: cell number; concentration: 10 µM; time: 12 h; setting: mean of 2 replicates; relative to: plate mean; reading: higher = more cells
CC#CCOC(=O)c1c(C)nc2sc3c(c2c1N)CCC(O)C3 (stereo not drawn) gave a nuclei count of 2.11 z-score.
With CC(=O)NCCc1c(Cc2ccccc2)[nH]c2ccccc12 the nuclei count was 0.82 z-score.
With CCOc1ccccc1OCCN[C@H](C)Cc1ccc(OC)c(S(N)(=O)=O)c1 the nuclei count was -0.323 z-score.
With N#CN=C(NCCCCCCOc1ccc(Cl)cc1)Nc1ccncc1 the nuclei count was 0.922 z-score.
CCn1c(-c2nonc2N)nc2cncc(C(=O)N3CC[C@H](N)C3)c21 has a nuclei count of -1.38 z-score.
With CN1C2CCCC1CC(NC(=O)c1nn(C)c3ccccc13)C2 (stereo not drawn) the nuclei count was -0.355 z-score.
Cc1cccc(C#Cc2ccccc2)n1 has a nuclei count of 0.634 z-score.
The nuclei count of CO/N=C(\C(=O)N[C@@H]1C(=O)N2C(C(=O)O)=C(COC(N)=O)CS[C@H]12)c1ccco1 is reported as 0.74 z-score.

Series 3 — species: mouse; medium: microsomes or S9; concentration: 2 µM; time: 0.5 h
COc1ccc(-c2oc3cc(OC)c(OC)c(OC)c3c(=O)c2OC)cc1OC gave a remaining compound of 12.6%.
With CC(C)(C)c1cc(O)c2o/c(=N\c3ccc(S(N)(=O)=O)cc3)c(C(N)=O)cc2c1 the remaining compound was 77.7%.
O=C(Nc1cc(Cl)ccc1Cl)c1c2c(nn1C1CCS(=O)(=O)C1)CCC2 (stereo not drawn) has a remaining compound of 3.42%.
COC(=O)c1ccc(CCC(C)NCC(O)c2cccc(Cl)c2)o1 (stereo not drawn) gave a remaining compound of 3.98%.

Series 4 — read-out: enzyme activity; mode: inhibitor; concentration: 0.5 µM; relative to: control
Target: Serine/threonine-protein kinase B-raf (BRAF, Homo sapiens, UniProt P15056)
O=C1NC(=O)c2c1c1c3ccccc3[nH]c1n1cncc21 has a remaining activity of 101%.
O=C(c1cc2cc(O)ccc2[nH]1)c1cc2cc(O)ccc2[nH]1 has a remaining activity of 97.4%.
With N#Cc1cnc2cnc(NCc3cccnc3)cc2c1Nc1ccc(F)c(Cl)c1 the remaining activity was 106%.
CN(C)S(=O)(=O)c1ccc2c(c1)/C(=C/c1cc3c([nH]1)CCCC3)C(=O)N2 has a remaining activity of 89.2%.
With COc1cccc(-c2cc(=O)c3ccccc3o2)c1N the remaining activity was 93.6%.
O=c1cc(N2CCOCC2)oc2c(-c3ccccc3)cccc12 gave a remaining activity of 95.9%.
Cc1cc(Nc2cc(N3CCN(C)CC3)nc(Sc3ccc(NC(=O)C4CC4)cc3)n2)[nH]n1 gave a remaining activity of 104%.
The remaining activity of CN1CCN(c2ccc3nc(-c4c(N)c5c(F)cccc5[nH]c4=O)[nH]c3c2)CC1 is reported as 105%.
With c1ccc(-c2n[nH]c3c2oc2ccccc23)cc1 the remaining activity was 96.9%.
COc1ccc(COc2ccc(Cc3cnc(N)nc3N)cc2OC)cc1 has a remaining activity of 99%.
With O=C1Nc2ccc(Br)cc2/C1=C/c1cc2c([nH]1)CCCC2 the remaining activity was 92.5%.

Excerpt of the above (series 1):
Insulin-like growth factor 1 receptor (IGF1R, Homo sapiens, UniProt P08069) — remaining binding: 100%.
It gave 100% for remaining binding (Casein kinase I isoform gamma-2 (CSNK1G2, Homo sapiens, UniProt P78368)).
The remaining binding was 100% (Macrophage colony-stimulating factor 1 receptor (CSF1R, Homo sapiens, UniProt P07333)).
The remaining binding was 100% (Mitotic checkpoint serine/threonine-protein kinase BUB1 (BUB1, Homo sapiens, UniProt O43683)).
The remaining binding was 100% (Mitogen-activated protein kinase 6 (MAPK6, Homo sapiens, UniProt Q16659)).
